Measured values collected from several papers.
Protocols differ between the studies behind these lines. “And” joins repeats or separate records; there may be more than shown. Numbers after ± are the reported error.
UCHL1: Ubiquitin carboxyl-terminal hydrolase isozyme L1 (UCHL1, Homo sapiens, UniProt P09936)
Sequence of UniProt P09936 (whole entry, looked up): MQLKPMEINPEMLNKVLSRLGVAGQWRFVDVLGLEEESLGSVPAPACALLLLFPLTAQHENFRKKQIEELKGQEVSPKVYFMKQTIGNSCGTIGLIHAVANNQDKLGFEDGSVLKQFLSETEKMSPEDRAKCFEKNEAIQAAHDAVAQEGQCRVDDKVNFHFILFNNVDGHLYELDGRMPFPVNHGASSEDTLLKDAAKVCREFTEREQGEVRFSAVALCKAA

O=C(Nc1nnc2n3c(Cc4ccccc4)n[nH]c3nc(-c3ccc(Cl)cc3)c1-2)c1ccccc1
cell growth (Malme-3M; SRB; 10 µM, NCI60 single-dose screen; baseline: untreated): 93.5%

CCCCN1CCN(c2ccc3nc(-c4ccc5nc(-c6cc(OC)ccc6OC)[nH]c5c4)[nH]c3c2)CC1
growth percent (Malme-3M; SRB; 10 µM, 48 h): 119%

O=C(O)CC[C@H](NC(=O)N[C@@H](CCCCNC(=O)[C@H](Cc1ccc2ccccc2c1)NC(=O)CCCCCNC(=O)CN1CCN(CC(=O)O)CCN(CC(=O)O)CCN(CC(=O)O)CC1)C(=O)O)C(=O)O [gallium-68 labelled]
tissue uptake (gamma counting; mouse, 22Rv1 xenograft, blood; intravenous, 3.7 MBq, 2 h): 6.87 ± 1.57 %ID/g

C#C[C@@]1(O)[C@@H](CO)O[C@@H](n2ccc3c(N)ncnc32)[C@@H]1O
TGI (Malme-3M; SRB; NCI-60 screen): 5.55 µM

Cc1cc(C)c(-c2cc(NC(=O)CCl)n(-c3ccccc3)n2)cc1C
labelling (UCHL1; covalent, intact protein LC-MS; 12.5 µM): 10.4%

O=C(Nc1nnc2n3c(nc(-c4ccc(Cl)cc4)c1-2)SCC3=O)c1ccccc1
cell growth (Malme-3M; SRB; 10 µM, NCI60 single-dose screen; baseline: untreated): 92.2%

O=C1NCCc2[nH]c(-c3ccncc3)cc21
IC50 (Malme-3M; cytotoxicity, MTS; NCI60 panel; melanoma): 3.05 µM

N#CC(=Cc1cccc(Cl)c1Cl)C(N)=O
labelling (UCHL1; covalent, intact protein LC-MS; 12.5 µM): 34.1%

CCOc1ccc(-c2nc3cc(-c4nc5cc(N6CCN(C)CC6)ccc5[nH]4)ccc3[nH]2)cc1OCC
growth percent (Malme-3M; SRB; 10 µM, 48 h): -34.7%

CCOC(=O)CSc1nc(-c2ccc(Cl)cc2)c2c(NC(=O)c3ccccc3)nnc-2[nH]1
cell growth (Malme-3M; SRB; 10 µM, NCI60 single-dose screen; baseline: untreated): 85.1%

O=C1NC(=NCc2cccs2)S/C1=C\c1ccc2ncccc2c1
IC50 (Malme-3M; cytotoxicity, MTS; NCI60 panel; melanoma): > 10 µM

Cc1cc(-c2ccccc2)n(-c2nc(-c3ccc(Cl)cc3)c3c(NC(=O)c4ccccc4)nnc-3[nH]2)n1
cell growth (Malme-3M; SRB; 10 µM, NCI60 single-dose screen; baseline: untreated): 97%

C#C[C@@]1(O)[C@@H](CO)O[C@@H](n2cc(I)c3c(N)ncnc32)[C@@H]1O
TGI (Malme-3M; SRB; NCI-60 screen): 2.76 µM and 4.16 µM

Cc1cc(C)n(C(=S)[S][Au][PH](CCCCCC[PH]([Au][S]C(=S)n2nc(C)cc2C)(c2ccccc2)c2ccccc2)(c2ccccc2)c2ccccc2)n1
log TGI (Malme-3M; cell growth, NCI-60 screen; melanoma): > -4 log10 M

CCCCN1CCN(c2ccc3[nH]c(-c4ccc5[nH]c(-c6ccc(OCC)c(OCC)c6)nc5c4)nc3c2)CC1
growth percent (Malme-3M; SRB; 10 µM, 48 h): 9.35%

Cn1cncc1C1=CN(c2ncnc3[nH]cnc23)CCS1
GI50 (Malme-3M; melanoma cell line): 19.1 µM

CCCN1CCN(c2ccc3nc(-c4ccc5nc(-c6cc(OC)ccc6OC)[nH]c5c4)[nH]c3c2)CC1
growth percent (Malme-3M; SRB; 10 µM, 48 h): 139%

CCN(CC)c1ccc(C=NNC(=O)CSc2nc3ccccc3c(=O)n2Cc2ccc(S(N)(=O)=O)cc2)c(O)c1
TGI (Malme-3M; NCI five-dose screen): > 100 µM

O=C(Nc1nnc2n3c(=S)[nH][nH]c3nc(-c3ccc(Cl)cc3)c1-2)c1ccccc1
cell growth (Malme-3M; SRB; 10 µM, NCI60 single-dose screen; baseline: untreated): 98.5%

CCCCN1CCN(c2ccc3[nH]c(-c4ccc5[nH]c(-c6ccc(C(F)(F)F)cc6)nc5c4)nc3c2)CC1
growth percent (Malme-3M; SRB; 10 µM, 48 h): -74.2%

A few entries again:
C#C[C@@]1(O)[C@@H](CO)O[C@@H](n2ccc3c(N)ncnc32)[C@@H]1O
TGI (Malme-3M; SRB; NCI-60 screen): 5.55 µM

Cc1cc(C)c(-c2cc(NC(=O)CCl)n(-c3ccccc3)n2)cc1C
labelling (UCHL1; covalent, intact protein LC-MS; 12.5 µM): 10.4%
